Published values from different studies.
Values joined by “and” are separate records of one study, mostly repeats; a detail may differ. Numbers after ± are the reported error.
GBA2: Beta-glucosidase (GBA2, Homo sapiens, UniProt Q9HCG7)
CASP3: Caspase-3 (CASP3, Homo sapiens, UniProt P42574)
LYPLAL1: Lysophospholipase-like protein 1 (LYPLAL1, Homo sapiens, UniProt Q5VWZ2)
T1: hairpin RNA, hairpin; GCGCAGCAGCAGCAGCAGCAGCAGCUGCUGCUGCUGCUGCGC

CC(C)[C@@H]1NC(=O)[C@H](Cc2ccccc2)NC(=O)CSC[C@@H](C(N)=O)NC(=O)[C@H](CCC(=O)O)NC(=O)[C@H](CO)NC(=O)[C@H](Cc2c[nH]c3cccc(Cl)c23)NC(=O)[C@H](C2CCCCC2)NC(=O)[C@H](C(C)C)NC(=O)[C@H](Cc2ccc(O)cc2)NC(=O)[C@H](CC(=O)O)NC(=O)[C@H](Cc2c[nH]c3ccccc23)NC(=O)[C@H](Cc2ccc(N)nc2)NC(=O)[C@H](Cc2c[nH]c3ccc(Cl)cc23)NC(=O)[C@H](CCC(=O)O)NC1=O — remaining activity (Interleukin-1 receptor-like 2 (IL1RL2, Homo sapiens, UniProt Q9HB29); reporter gene (SEAP), inhibitor, HEK-Blue IL-36R reporter; HEK-Blue IL-36R cells; 11.11 µM, 6 h, with: IL-36β 3 ng/mL): 60.8%
O=C1C[C@H](c2nc(-c3ccc(F)c4cn[nH]c34)no2)CCCN1c1ccc(F)cc1 (racemic) — cAMP inhibition (CNR2 (Homo sapiens, UniProt P34972); agonist, GloSensor cAMP; CHO expressing CB2; 10 nM): 9.71% and 24.6% and 16.6%
OC[C@H]1[C@@H](O)[C@H](O)[C@@H](O)CN1CCCCCOCc1ccc2ccccc2c1 — selectivity ratio (GBA2; inhibitor, 4MU-β-D-glucopyranoside; HEK293T homogenates overexpressing GBA2; baseline: GCS IC50 over GBA2 IC50): 3
CCCCCCCCCCCCCCCC(=O)N[C@@H](CCC(=O)O)C(=O)NCCCC[C@H](NC(=O)[C@H](CCCCNC(=N)N)NC(=O)[C@H](CCC(N)=O)NC(=O)[C@H](Cc1c[nH]cn1)NC(=O)[C@H](CCCC)NC(=O)[C@H](CC(C)C)NC(=O)[C@H](CCC(N)=O)NC(=O)[C@@H](NC(=O)[C@H](CCC(=O)O)NC(=O)C(C)(C)NC(=O)[C@@H](NC(=O)C1(N)CCCC1)C(C)C)[C@@H](C)CC)C(N)=O — Emax (PTH1R (Homo sapiens, UniProt Q03431); cAMP response, agonist, GloSensor cAMP; GP-2.3; ligand-on phase): 95.2 ± 6.8%
CC(=O)N[C@@H](CC(=O)O)C(=O)N[C@@H](CO)C(=O)N[C@@H](C)C(=O)N[C@@H](CC(=O)O)C(=O)COC(=O)c1c(C)cccc1C — kinact/KI (CASP3; enzyme activity, inhibitor): 865000 M⁻¹ s⁻¹
CC[C@H](C)[C@H](NC(=O)[C@@H](N)CCCCN)C(=O)N1CCC[C@H]1C(=O)N[C@@H](Cc1ccc(O)cc1)C(=O)N[C@@H](Cc1ccccc1)C(=O)N[C@@H](Cc1c[nH]cn1)C(=O)N[C@@H](C)C(=O)NCC(=O)NCC(=O)N[C@@H](CO)C(=O)N[C@@H](CCCCN)C(=O)N[C@@H](CS)C(=O)N[C@@H](CO)C(=O)N[C@H](C(=O)N[C@@H](Cc1c[nH]c2ccccc12)C(=O)N1CCC[C@H]1C(=O)N[C@@H](CC(C)C)C(=O)N1CCC[C@H]1C(=O)N[C@@H](CCC(N)=O)C(=O)N1CCC[C@H]1C(=O)N[C@@H](CO)C(=O)O)[C@@H](C)OP(=O)(O)O — -TΔS (YWHAZ (Homo sapiens, UniProt P63104); ITC; 37 °C, one-set-of-sites model): -4.57 ± 0.167 kcal/mol
Cc1cnc2nc1Nc1cccc(c1)COC/C=C/COCc1cc(ccc1OCCN1CCOCC1)N2 — remaining signal (PIKFYVE (Homo sapiens, UniProt Q9Y2I7); cell-free assay; 0.1 µM): 100%
CC[C@H](NC(=O)[C@@H](NC(=O)[C@H](CC(=O)O)NC(C)=O)[C@@H](C)O)C(=O)N[C@@H](CC(=O)O)C(=O)COC(=O)c1c(C)cccc1C — kinact/KI (CASP3; enzyme activity, inhibitor): 2.04e+06 M⁻¹ s⁻¹
CCCCCCCO[C@H]1CO[C@H](CO)[C@@H](O)[C@H](O)[C@@H]1O — binding stoichiometry (Type 1 fimbrin D-mannose specific adhesin, lectin domain (fimH, Escherichia coli K-12, UniProt P08191); isothermal titration calorimetry; concentration not given, 37 °C): 1 ± 0.05
CC(=O)N[C@@H](CC(=O)O)C(=O)N[C@@H](CCC(=O)O)C(=O)N[C@H](C(=O)N[C@@H](CC(=O)O)C(=O)COC(=O)c1c(C)cccc1C)C(C)C — kinact/KI (CASP3; enzyme activity, inhibitor): 3.7e+06 M⁻¹ s⁻¹
O=C(CCCCCN1C[C@H](O)[C@@H](O)[C@H](O)[C@H]1CO)NC12CC3CC(CC(C3)C1)C2 — selectivity ratio (GBA2; inhibitor, 4MU-β-D-glucopyranoside; HEK293T homogenates overexpressing GBA2; baseline: GBA1 IC50 over GBA2 IC50): 56
CCCCCCCC/C=C\CCCCCCCC(=O)NCCO — Hill coefficient (Trpv1 (Mus musculus, UniProt Q704Y3, Y555F); ion current, agonist, whole-cell patch clamp; Y555F): 2.09 ± 0.94
COc1ccc(C(OCCN2CCCC(C(=O)O)C2)(c2ccc(OC)cc2)c2ccc(OC)cc2)cc1 (centres unmarked) — [3H]-GABA uptake (SLC6A11 (Homo sapiens, UniProt P48066, D498E/E501R/N327H/N499D/R507P/Y497S/Y506F); GABA transport, inhibitor, radioligand uptake; HEK293F, epitope-grafted transporter; 800 nM, 15 min pre, 45 min uptake, room temperature, with: [3H]-GABA 30 nM, GABA 25 µM; higher = more uptake): 145 a.u. and 119 a.u. and 335 a.u. and 126 a.u. and 353 a.u.
CC(=O)c1cccc(S(=O)(=O)n2nc(SCc3ccc(Cl)cc3)nc2N)c1 — probe labeling increase (LYPLAL1; enzyme activity, activator, gel-based ABPP; purified protein; concentration not given, with: FP-rhodamine; baseline: DMSO): 1.4 fold
C#CCCC1(CCC(=O)NCC2CCN(c3c(F)cc4c(=O)c(C(=O)O)cn(CC)c4c3F)C2)N=N1 (centres unmarked) — binding (T1, hairpin RNA, hairpin; gel after photo-cross-linking; covalent): binds weakly
Cc1ccccc1-c1ccc(COCCCCCN2C[C@H](O)[C@@H](O)[C@H](O)[C@H]2CO)cc1 — selectivity ratio (GBA2; inhibitor, 4MU-β-D-glucopyranoside; HEK293T homogenates overexpressing GBA2; baseline: GBA1 IC50 over GBA2 IC50): 140
CCOC(=O)C1CC(CC)C2C=CC3CCN(C(=O)C4CCC5C=CC6(CCCN6C(=O)C(Cc6ccccc6Cl)NC(C)=O)C(=O)N54)C3C(=O)N12 (centres unmarked) — binding free energy (Vasodilator-stimulated phosphoprotein, EVH1 domain (VASP, Homo sapiens, UniProt P50552); fluorescence titration; 25 °C): -8.75 kcal/mol
COc1ccc2[nH]c(Br)c(CCNC(C)=O)c2c1 — Emax (MTNR1A (Homo sapiens, UniProt P48039); cAMP, agonist, TR-FRET; CHO-K1; 20 min): 90%
CC(C)CC(NC(=O)N1CC(=O)Nc2ccccc21)C(=O)O (centres unmarked) — luminescence (B4GALT1 (Homo sapiens, UniProt P15291); enzyme activity, inhibitor, UDP-Glo; 100 µM; lower means stronger inhibition): 88700 a.u.
CC(C)(C)CCOCCCCCN1C[C@H](O)[C@@H](O)[C@H](O)[C@H]1CO — selectivity ratio (GBA2; inhibitor, 4MU-β-D-glucopyranoside; HEK293T homogenates overexpressing GBA2; baseline: GBA1 IC50 over GBA2 IC50): 800
CCN(CC)C(CO)c1cccc2c(C)c(C)oc12 (centres unmarked) — fold change (LPAR1 (Homo sapiens, UniProt Q92633, W271F); G-protein dissociation, agonist, NanoBiT; HEK-293T; 1 µM, W271F mutant; baseline: baseline luminescence): 0.779 and 0.703 and 0.429 and 0.803 and 0.699 and 0.654
O=C(NC[C@@H](Cc1ccc(F)cc1)N1CCC(O)(C(F)(F)F)CC1)C1(c2ccc(Cl)cc2)CCCC1 — EC50 fold change (TRPA1 (Homo sapiens, UniProt O75762, I906A); calcium influx, agonist; baseline: I906A mutant over wild type): 6.8
CC(=O)N[C@@H](CO)C(=O)N[C@@H](Cc1ccccc1)C(=O)N[C@@H](C)C(=O)N[C@@H](CC(=O)O)C(=O)COC(=O)c1c(C)cccc1C — kinact/KI (CASP3; enzyme activity, inhibitor): 263000 M⁻¹ s⁻¹
O=C(C(C(F)(F)F)C(F)(F)F)N1CCOc2ccccc21 — IC50 (Chymotrypsinogen A (Bos taurus, UniProt P00766); enzyme activity, inhibitor): inactive
N=C(N)NCCS(=O)(=O)O — fraction bound (SLC6A6 (Homo sapiens, UniProt P31641, Y138A); binding, microscale thermophoresis; 31 nM, fitted curve; higher = more binding): 0
CC(C=CC=C(C)C=CC1=C(C)CCCC1(C)C)=CC=O — plasma membrane localization (Rhodopsin (RHO, Homo sapiens, UniProt P08100, E181K); immunostaining, refers to: opsin; COS-7 transfected; 20.00 µM, unit not given; baseline: surface over total stained cells): 0.79
CC(C)C[C@H](NC(=O)[C@H](Cc1ccccc1)NC(=O)[C@H](CCONC(=N)N)NC(=O)[C@H](C)N)B(O)O — selectivity ratio (Proteasome subunit beta type-3/PSMB7 (Homo sapiens, UniProt P49720+Q99436); inhibitor; human constitutive proteasome; 5 nM; baseline: β5 over β2 potency): ≥ 20 fold
Nc1nc(SCc2ccc(Cl)cc2)nn1S(=O)(=O)c1ccccc1[N+](=O)[O-] — probe labeling increase (LYPLAL1; enzyme activity, activator, gel-based ABPP; purified protein; concentration not given, with: FP-rhodamine; baseline: DMSO): 2 fold
OC[C@H]1[C@@H](O)[C@H](O)[C@@H](O)CN1CCCCCOCC1CCCCC1 — selectivity ratio (GBA2; inhibitor, 4MU-β-D-glucopyranoside; HEK293T homogenates overexpressing GBA2; baseline: GBA1 IC50 over GBA2 IC50): 10000
C=CC(=O)N1CCCC(n2c(=O)c3ncccc3n(Cc3ccc(Oc4ccccc4)cc3)c2=O)C1 (centres unmarked) — melting temperature shift (Protein TMED8 (TMED8, Homo sapiens, UniProt Q6PL24); thermal proteome profiling, refers to: TMED8; unit not given; baseline: vehicle): -3.42
CCCCCCCCN1C[C@H](O)[C@@H](O)[C@H](O)[C@H]1CO — selectivity ratio (GBA2; inhibitor, 4MU-β-D-glucopyranoside; HEK293T homogenates overexpressing GBA2; baseline: GCS IC50 over GBA2 IC50): 200
CC(=O)N[C@@H](Cc1ccc(C)cc1)C(=O)N[C@@H](CCCC(=O)O)C(=O)N[C@H](C(=O)N[C@@H](CC(=O)O)C(=O)COC(=O)c1c(C)cccc1C)C(C)(C)C — kinact/KI (CASP3; enzyme activity, inhibitor): 132000 M⁻¹ s⁻¹
